Measurements gathered from unrelated publications.
Numbers after ± are the reported error.
Target: Histone deacetylase 8 (HDAC8, Homo sapiens, UniProt Q9BY41)
Residues used in one study (Q9BY41 1-377): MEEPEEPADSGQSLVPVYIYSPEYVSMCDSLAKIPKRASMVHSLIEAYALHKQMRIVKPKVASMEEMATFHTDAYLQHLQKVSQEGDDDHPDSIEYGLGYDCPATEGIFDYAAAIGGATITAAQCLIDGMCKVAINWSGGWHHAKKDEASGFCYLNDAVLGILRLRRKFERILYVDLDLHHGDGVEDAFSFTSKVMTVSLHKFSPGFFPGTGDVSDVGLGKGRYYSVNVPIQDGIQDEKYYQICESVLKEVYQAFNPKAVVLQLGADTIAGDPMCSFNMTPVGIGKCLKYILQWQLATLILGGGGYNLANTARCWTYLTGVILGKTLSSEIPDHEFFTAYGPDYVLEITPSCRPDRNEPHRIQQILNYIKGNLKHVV

`O=C(CCCCCCN(Cc1cc2ccccc2[nH]1)Cc1cc2ccccc2[nH]1)NO` has an IC50 of 4.6 µM (enzyme activity, inhibitor, fluorescence).
`O=c1[nH]sc2ccccc12` gave an IC50 of over 10 µM (enzyme activity, inhibitor).
For `O=C(CCCCCCNCc1ccc([N+](=O)[O-])cc1)NO`, the IC50 was 2.1 µM (enzyme activity, inhibitor, fluorescence).
With `O=C(/C=C/c1ccc2ccccc2c1)NO` the IC50 was 0.205 µM (enzyme activity, inhibitor).
`COCc1cc2c(cn1)CN(C(=O)Nc1nc(-c3ccc(F)cc3)ccc1N)C2` has an IC50 of over 30 µM (deacetylase activity, inhibitor, recombinant enzyme).
For `O=c1c2ccccc2on1-c1ccccc1`, the IC50 was over 10 µM (enzyme activity, inhibitor).
The IC50 of `O=C(CCCCCCN(Cc1cccnc1)Cc1cccnc1)NO` is reported as 1.4 µM (enzyme activity, inhibitor, fluorescence).
`Cc1ncc2c(n1)CN(C(=O)Nc1nc(-c3cccs3)ccc1N)C2` gave an IC50 of over 30 µM (deacetylase activity, inhibitor, recombinant enzyme).
`O=c1c2ccccc2sn1-c1ccccc1` has an IC50 of 0.19 µM (enzyme activity, inhibitor).
`O=C(CCCCCCN(Cc1ccc([N+](=O)[O-])cc1)Cc1ccc([N+](=O)[O-])cc1)NO` has an IC50 of 4.9 µM (enzyme activity, inhibitor, fluorescence).
With `CC(=O)Nc1ccc(C(=O)Nc2cc(-c3cccs3)ccc2N)cc1` the IC50 was over 30 µM (deacetylase activity, inhibitor, recombinant enzyme).
For `CCCc1nc2ccccn2c1Nc1ccc(C(=O)NO)cc1`, the IC50 was 1.58 ± 0.21 µM.

Repeated from above:
`O=C(CCCCCCN(Cc1ccc([N+](=O)[O-])cc1)Cc1ccc([N+](=O)[O-])cc1)NO` has an IC50 of 4.9 µM (enzyme activity, inhibitor, fluorescence).
